Assay results of several laboratories.
Lines come from different studies, so protocols differ.
Organism: Mycobacterium tuberculosis

| SMILES | test | system | setting | MIC |
| --- | --- | --- | --- | --- |
| Cc1c2c([nH]c(=O)c1CNC(=O)c1ccc([N+](=O)[O-])o1)CCCC2 | microbial growth, resazurin | H37RV |  | > 50 µg/mL |
| N#Cc1cc2cccnc2nc1N1CCN(C(=O)CNc2ccc(Cl)cc2)CC1 | microplate Alamar Blue | H37Rv |  | 61.4 µM |
| CC(C)c1ccc(-c2cncc(CN3CC[Si](C)(C)CC3)c2)cc1 | microbial growth, resazurin | H37RV |  | 0.5 to 1 µg/mL |
| Cc1c2c([nH]c(=O)c1CNC(=O)c1ccc([N+](=O)[O-])s1)CCCC2 | microbial growth, resazurin | H37RV |  | 5.5 µg/mL |
| N#Cc1cc2cccnc2nc1N1CCN(CC(=O)Nc2ccccc2[N+](=O)[O-])CC1 | microplate Alamar Blue | H37Rv |  | 29.9 µM |
| O=c1c2ccccc2[se]n1-c1ccccc1 | microbial growth, resazurin | H37RV |  | 12.5 µg/mL |
| Cc1c(-c2ccccc2)c(=O)n2c([nH]c3ccccc32)c1C#N | microbial growth, resazurin | H37RV |  | 8 µg/mL |
| O=C1c2ccccc2C(=O)c2c1oc(NC1CCCCC1)c2C1CCN(Cc2ccccc2)CC1 | resazurin microplate | H37Rv | 7 days + 24 h | 17 to 34 µM |
| N#Cc1cc2cccnc2nc1N1CCN(C(=O)c2ccc([N+](=O)[O-])o2)CC1 | microplate Alamar Blue | H37Rv |  | 16.5 µM |
| COc1ccc(-n2nnc3c2CCC2(C=Cc4cc(Cl)ccc4O2)C3)cc1 (centres unmarked) | microbial growth, resazurin | H37RV | 7 days | 1.56 µg/mL |
| COc1ccccc1Cn1[se]c2ccccc2c1=O | microbial growth, resazurin | H37RV |  | 12.5 µg/mL |
| O=C(OCc1ccccc1)c1coc(-c2ccccc2)n1 |  | drug-sensitive clinical strain 2, 7H9 glucose glycerol BSA medium |  | 0.6 to 1.25 µg/mL |
| Cc1[nH]c(=O)c(NC(=O)c2ccc(C(F)(F)F)nc2)c2c1CCCC2 | microbial growth, resazurin | H37RV |  | > 50 µg/mL |
| Clc1ccc(-n2nnc3c2CCC2(C=Cc4cc(Cl)ccc4O2)C3)cc1 (centres unmarked) | microbial growth, resazurin | H37RV | 7 days | 25 µg/mL |
| COc1cc(OC)cc(-c2ccc(C(=O)NCc3c(C)c4ccccc4[nH]c3=O)cc2)c1 | microbial growth, resazurin | H37RV |  | > 50 µg/mL |
| O=C(NC(=O)c1cc2c(F)cc(F)cc2[nH]1)c1cccc(Cl)c1 | microplate alamarBlue | H37Rv |  | > 32 µg/mL |
| CO[C@H]1/C=C/O[C@@]2(C)Oc3c(C)c(O)c4c(O)c(c(/C=N/N5CCN(C)CC5)c(O)c4c3C2=O)NC(=O)/C(C)=C\C=C\[C@H](C)[C@H](O)[C@@H](C)[C@@H](O)[C@@H](C)[C@H](OC(C)=O)[C@@H]1C | microbial growth, resazurin | H37RV | 7 days | 0.411 µg/mL |
| NNC(=O)c1ccncc1 | microbial growth, resazurin | H37RV |  | 0.04 µg/mL |
| CCCCNC=C1C(=O)C(=O)c2ccccc2C1=O | resazurin microplate | H37Rv | 7 days + 24 h | > 147 µM |
| Cc1c(CNC(=O)c2ccc(C(F)(F)F)nc2)c(=O)[nH]c2ccccc12 | microbial growth, resazurin | H37RV |  | > 50 µg/mL |
| Cc1c(Cc2cccnc2)c(=O)n2c([nH]c3ccccc32)c1C#N | microbial growth, resazurin | H37RV |  | 4 µg/mL |
| Cc1ccc2c(c1)C=CC1(CCc3c(nnn3-c3ccccc3)C1)O2 (centres unmarked) | microbial growth, resazurin | H37RV | 7 days | 1.56 µg/mL |
| Cc1cc(=O)[nH]c2c1C(=O)c1c(CCCCCCC(C)C)cc(=O)[nH]c1C2=O | Microplate Alamar Blue | H37Rv | replicating bacteria | 0.04 µg/mL |
| CO[C@H]1/C=C/O[C@@]2(C)Oc3c(C)c(O)c4c(O)c(c(/C=N/N5CCN(C)CC5)c(O)c4c3C2=O)NC(=O)/C(C)=C\C=C\[C@H](C)[C@H](O)[C@@H](C)[C@@H](O)[C@@H](C)[C@H](OC(C)=O)[C@@H]1C |  | H37Rv, replicating |  | 0.1 µM |

| SMILES | test | system | setting | MIC |
| --- | --- | --- | --- | --- |
| COc1ccc2[nH]c(C(=O)NC(C)C34CC5CC(CC(C5)C3)C4)cc2c1 (centres unmarked) | microplate alamarBlue | H37Rv |  | 2 µg/mL |
| COc1cc(OC)cc(-c2ccc(C(=O)NCc3c(C)cc(C4CC4)[nH]c3=O)cc2)c1 | microbial growth, resazurin | H37RV |  | > 20 µg/mL |
| CC(NC(=O)c1cc2cc(Cl)ccc2[nH]1)C12CC3CC(CC(C3)C1)C2 (centres unmarked) | microplate alamarBlue | H37Rv |  | 1 µg/mL |
| COc1ccc(Cn2[se]c3ccccc3c2=O)cc1 | microbial growth, resazurin | H37RV |  | 25 µg/mL |
| O=C(OCc1ccccc1)c1coc(-c2ccccn2)n1 |  | H37Rv | 168 h | 1 to 4 µM |
| CC(=O)NCN1N=C(C)C(=NNn2c(-c3ccccc3)nc3ccccc3c2=O)C1=O | microplate alamar blue | H37Rv |  | 14.3 µM |
| CC(C)(C)Nc1oc2c(c1-c1ccc([N+](=O)[O-])o1)C(=O)c1ccccc1C2=O | resazurin microplate | H37Rv | 7 days + 24 h | > 147 µM |
| COc1cccc(Cc2c(C)c(C#N)c3[nH]c4ccccc4n3c2=O)c1 | microbial growth, resazurin | H37RV |  | > 128 µg/mL |
| CCCCNc1oc2c(c1-c1ccc([N+](=O)[O-])o1)C(=O)c1ccccc1C2=O | resazurin microplate | H37Rv | 7 days + 24 h | 84 µM |
| N#Cc1cc2cccnc2nc1N1CCN(C(=O)CNc2cccc(C(F)(F)F)c2)CC1 | microplate Alamar Blue | H37Rv |  | 56.8 µM |
| O=C1NN=C(N=Cc2ccccc2)C1=NNn1c(-c2ccccc2)nc2ccccc2c1=O | microbial growth, resazurin | H37RV |  | 14.3 µM |
| N#Cc1cc2cccnc2nc1N1CCN(C(=O)CNc2ccc(Br)cc2)CC1 | microplate Alamar Blue | H37Rv |  | 55.4 µM |
| Cc1c(C)c(=O)n2c([nH]c3ccccc32)c1C#N | microbial growth, resazurin | H37RV |  | > 128 µg/mL |
| Cc1[nH]c(=O)c(CNC(=O)c2ccc(Cl)nc2)c2c1CCCC2 | microbial growth, resazurin | H37RV |  | 4.9 µg/mL |
| N#Cc1cc2cccnc2nc1N1CCN(C(=O)CNc2ccc(F)c(F)c2)CC1 | microplate Alamar Blue | H37Rv |  | > 122 µM |
| CC(C)(C)Nc1oc2c(c1C1CCN(Cc3ccccc3)CC1)C(=O)c1ccccc1C2=O | resazurin microplate | H37Rv | 7 days + 24 h | 9 µM |
| CO[C@H]1/C=C/O[C@@]2(C)Oc3c(C)c(O)c4c(O)c(c(/C=N/N5CCN(C)CC5)c(O)c4c3C2=O)NC(=O)/C(C)=C\C=C\[C@H](C)[C@H](O)[C@@H](C)[C@@H](O)[C@@H](C)[C@H](OC(C)=O)[C@@H]1C | microbial growth, resazurin | H37RV |  | 0.01 µM |
| CC(NC(=O)c1cc2c(Cl)cc(Cl)cc2[nH]1)C12CC3CC(CC(C3)C1)C2 (centres unmarked) | microplate alamarBlue | H37Rv |  | 0.125 µg/mL |
| Cn1ncc2cc(-c3c(NC4CCCCC4)oc4c3C(=O)c3ccccc3C4=O)ccc21 | resazurin microplate | H37Rv | 7 days + 24 h | 150 µM |
| Cc1c(CNC(=O)c2cnc(C(F)(F)F)nc2)c(=O)[nH]c2ccccc12 | microbial growth, resazurin | H37RV |  | > 50 µg/mL |
| CO[C@H]1/C=C/O[C@@]2(C)Oc3c(C)c(O)c4c(O)c(c(/C=N/N5CCN(C)CC5)c(O)c4c3C2=O)NC(=O)/C(C)=C\C=C\[C@H](C)[C@H](O)[C@@H](C)[C@@H](O)[C@@H](C)[C@H](OC(C)=O)[C@@H]1C | microplate Alamar Blue | H37Rv |  | 3.79 µM |
| O=C(NC12CC3CC(CC(O)(C3)C1)C2)c1cc2c(Cl)cc(Cl)cc2[nH]1 | microbial growth, resazurin | H37RV |  | 1.32 to 2.89 µM |
| CC(C)=CCC/C(C)=C/CNCCNC1C2CC3CC(C2)CC1C3 (centres unmarked) | microbial growth, resazurin | ATCC27294 H37RV |  | ≤ 0.39 µg/mL |

Some of these lines once more:
| SMILES | test | system | setting | MIC |
| --- | --- | --- | --- | --- |
| CC(C)(C)Nc1oc2c(c1-c1ccc([N+](=O)[O-])o1)C(=O)c1ccccc1C2=O | resazurin microplate | H37Rv | 7 days + 24 h | > 147 µM |
| CO[C@H]1/C=C/O[C@@]2(C)Oc3c(C)c(O)c4c(O)c(c(/C=N/N5CCN(C)CC5)c(O)c4c3C2=O)NC(=O)/C(C)=C\C=C\[C@H](C)[C@H](O)[C@@H](C)[C@@H](O)[C@@H](C)[C@H](OC(C)=O)[C@@H]1C |  | H37Rv, replicating |  | 0.1 µM |
| Cc1c2c([nH]c(=O)c1CNC(=O)c1ccc([N+](=O)[O-])o1)CCCC2 | microbial growth, resazurin | H37RV |  | > 50 µg/mL |
| N#Cc1cc2cccnc2nc1N1CCN(C(=O)CNc2ccc(F)c(F)c2)CC1 | microplate Alamar Blue | H37Rv |  | > 122 µM |
| COc1ccccc1Cn1[se]c2ccccc2c1=O | microbial growth, resazurin | H37RV |  | 12.5 µg/mL |
| Cc1c(-c2ccccc2)c(=O)n2c([nH]c3ccccc32)c1C#N | microbial growth, resazurin | H37RV |  | 8 µg/mL |
| Cc1c(C)c(=O)n2c([nH]c3ccccc32)c1C#N | microbial growth, resazurin | H37RV |  | > 128 µg/mL |
